Experimental data pooled from the literature.
A part holds a random share of what one study measured. Positions count from the first letter of the parent shown.

Study 1
Target: Sal-like protein 4, full length isoform A (SALL4, Homo sapiens, UniProt Q9UJQ4, residues 1-1053)
UniProt Q9UJQ4, sequence (whole entry, looked up): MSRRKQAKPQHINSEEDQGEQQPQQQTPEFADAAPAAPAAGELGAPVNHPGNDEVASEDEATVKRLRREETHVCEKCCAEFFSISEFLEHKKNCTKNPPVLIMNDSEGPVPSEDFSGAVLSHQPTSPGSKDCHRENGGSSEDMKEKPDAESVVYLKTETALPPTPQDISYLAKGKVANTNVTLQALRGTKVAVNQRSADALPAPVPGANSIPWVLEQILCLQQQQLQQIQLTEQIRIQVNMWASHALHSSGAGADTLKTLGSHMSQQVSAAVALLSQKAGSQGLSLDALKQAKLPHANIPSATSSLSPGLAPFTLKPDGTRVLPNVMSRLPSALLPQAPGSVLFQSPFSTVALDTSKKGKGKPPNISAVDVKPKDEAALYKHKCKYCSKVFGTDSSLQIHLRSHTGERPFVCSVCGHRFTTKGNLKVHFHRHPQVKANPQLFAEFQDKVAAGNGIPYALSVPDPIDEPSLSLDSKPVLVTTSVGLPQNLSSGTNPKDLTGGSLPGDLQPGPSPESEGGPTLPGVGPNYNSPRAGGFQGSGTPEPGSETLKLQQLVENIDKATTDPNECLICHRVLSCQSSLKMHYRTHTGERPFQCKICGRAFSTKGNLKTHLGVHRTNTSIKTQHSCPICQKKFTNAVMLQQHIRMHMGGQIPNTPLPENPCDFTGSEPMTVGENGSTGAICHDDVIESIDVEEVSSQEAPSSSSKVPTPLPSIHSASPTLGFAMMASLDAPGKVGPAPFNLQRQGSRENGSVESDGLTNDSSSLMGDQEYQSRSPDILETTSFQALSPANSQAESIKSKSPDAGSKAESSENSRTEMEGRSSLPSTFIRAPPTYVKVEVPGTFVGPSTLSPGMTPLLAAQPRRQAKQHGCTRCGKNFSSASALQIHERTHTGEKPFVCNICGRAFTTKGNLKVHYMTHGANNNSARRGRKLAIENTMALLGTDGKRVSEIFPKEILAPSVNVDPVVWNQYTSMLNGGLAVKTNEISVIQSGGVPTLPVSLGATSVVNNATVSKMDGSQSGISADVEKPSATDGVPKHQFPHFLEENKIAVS
Method: universal PBM
Form: double-stranded DNA, one strand shown
Sample: in vitro
Concentration: 600 nM
Notes: 8-mer, flanks averaged, mean of replicates
Direction: higher = stronger binding
Measurement: E-score
ACTAATGG: 0.0937
CCTTGTAG: -0.0364
CAGAGCTC: -0.212
AAGTTGTC: 0.0789
CTCGTTTA: 0.0796
CAAAAGAG: 0.0246
GTATGTGA: 0.201
TGCTTCCA: -0.0394
AAGCTTTG: 0.0512
AGTATCGG: 0.0783
AGGACTGG: -0.0925
GAAAATGC: 0.0872
CCATCAGA: -0.0268
CCGGCCTA: -0.135
ACAGAGCT: -0.217
AAGACTGG: -0.00764
ATTGCGCC: 0.086
CCGTTGGC: -0.213
AACTGAGG: 0.0881
AAGGTCAT: 0.0567
CATATCCG: 0.0839
CGCCTACG: -0.246
GTTCGTCA: -0.0753

Study 2
Target: Histone acetyltransferase KAT6A, winged helix 1, GST fusion (KAT6A, Homo sapiens, UniProt Q92794, residues 1-85)
Method: protein binding microarray
Form: double-stranded DNA, one strand shown
Sample: in vitro
Concentration: not given
Notes: 8-mer, flanks averaged, mean of 2 arrays, mostly near background
Baseline: not given
Direction: higher = stronger binding
Measurement: E-score
Target sequence (chain): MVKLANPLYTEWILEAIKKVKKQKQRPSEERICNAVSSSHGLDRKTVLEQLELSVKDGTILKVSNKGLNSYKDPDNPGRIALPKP
GACTCCGC: 0.257
GTGGAATA: -0.035
CCTTCCGA: 0.0139
AACTCAAT: -0.234
ACCTATTA: -0.06
GATGCGTA: 0.09
GTTGCCGA: 0.238
ATTTCAGG: -0.104
AACGAACA: -0.0171
GGGCAACC: -0.00329
GTGTAAAA: -0.129
AGAGCGTC: 0.0744
CAACTAAC: -0.0119
AAGCACAC: -0.0883
ACACCCCA: -0.237
ATTGGACG: -0.0771
ATAAAAAC: -0.0863
GATTTCCC: -0.0169
TGCACTAA: -0.0452
ACCTATCA: -0.0727
ATTTGTCA: -0.266
AGTGAACC: -0.0316
CGCATGCA: 0.212
AAGGCTGT: -0.0844
AGTATCAT: -0.0903

Study 3
Target: Protein C-ets-1 (ETS1, Homo sapiens, UniProt P14921, residues 1-441, Y397A, full length assumed)
Method: protein-binding microarray
Form: double-stranded DNA, one strand shown
Sample: in vitro
Concentration: not given
Notes: k-mer, scored over probes, only values ≥0.25
Direction: higher = stronger binding
Measurement: E-score
Target sequence (chain): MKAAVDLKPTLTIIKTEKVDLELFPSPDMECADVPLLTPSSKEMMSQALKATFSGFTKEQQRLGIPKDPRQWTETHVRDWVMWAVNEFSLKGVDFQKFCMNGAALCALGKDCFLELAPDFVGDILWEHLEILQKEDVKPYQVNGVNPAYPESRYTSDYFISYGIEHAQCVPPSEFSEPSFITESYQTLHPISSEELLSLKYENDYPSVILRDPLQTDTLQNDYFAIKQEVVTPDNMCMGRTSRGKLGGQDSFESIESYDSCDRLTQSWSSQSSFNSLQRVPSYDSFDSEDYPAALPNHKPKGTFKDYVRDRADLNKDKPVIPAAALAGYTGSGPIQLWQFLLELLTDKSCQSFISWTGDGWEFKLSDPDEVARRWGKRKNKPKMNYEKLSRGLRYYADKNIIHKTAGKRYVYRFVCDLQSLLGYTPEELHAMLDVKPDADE
ACAAAATG: 0.316
AATTGTCG: 0.38
TCTACAAA: 0.26
CTATATAC: 0.268
ACGTCGAC: 0.283
ACCGACAA: 0.347
CGTTGCCA: 0.284
AAGTTGCA: 0.275
ACCAACAT: 0.285
TTGCAAAA: 0.303
ATATCAAC: 0.284
CCAGCAAA: 0.316
GCAAATAC: 0.261
CGACATCC: 0.299
CACATGAC: 0.319
AACTTCCT: 0.37
AACTACAA: 0.259

Study 4
Target: CCNA2, cyclin fold, Cln2 fusion (human)
Method: yeast growth competition, sequencing
Sample: yeast
Notes: strong parent motif
Baseline: not given
Direction: higher = stronger binding
Measurement: normalised enrichment score
Starting sequence: PKN2 docking peptide (human); VSAVQKLDFSDTM
V1F: 2.45
D11Q: 1.58
L7Y: 0.11
T12W: 2.47
L7G: -0.601
T12G: 1.29
S10V: 0.91
V1Y: 1.94
D8E: 1.5
S2F: 1.15
S2H: 2.01
D11C: 2.79
S2E: 0.0307
F9D: -0.361
K6A: 0.961
A3Y: 1.17
M13G: 2.16
L7T: -0.105
T12P: 3.38
D11W: 1.23
D11R: 1.83

Study 5
Target: Interferon regulatory factor 5, full length, phosphomimetic (IRF5, Homo sapiens, UniProt Q13568-2, residues 1-514, K96S/S451D/S453D/S456D/S462D)
Method: protein-binding microarray
Form: double-stranded DNA, one strand shown
Sample: in vitro
Concentration: 250 nM
Notes: 60-bp whole probe
Added: salmon DNA 0.4 mg/ml
Baseline: random background probes
Direction: higher = stronger binding
Measurement: log fluorescence
All sequences stand within: GCCTAGCAC … GTCTTGATTCGCTTGACGCTGCTG
TCAGGTATCCTTATCCTTTAGTGCTAG: 0.154 z-score
TTAGGTCTGGACTTTCGGTTAGTGCTA: 9.04 z-score
TCATTTTTCCCTCTGGAAAAGTGCTAG: 1.05 z-score
TTGGGTTCCGGTTTCGGTTAGTGCTAG: 9.05 z-score
TTAGGACTGGCTTTCGGTTAGTGCTAG: 8.56 z-score
TTAGGTTTCAGTATCGATTAGTGCTAG: 9.22 z-score
TTAGGACTGGGGTCTGGGTTAGTGCTA: -0.746 z-score
TCAAGTATGTTCACTATTACTGTGCTA: 0.417 z-score
GACGATATCATTCTCGAGACGTGCTAG: 1.06 z-score
TTAGGTTTCGACTATCCGTTAGTGCTA: 7.83 z-score
GACAGACTGGGTCTCGGGACGTGCTAG: -0.522 z-score
TTTGCTTTCTTTTTGCACTCGTGCTAG: 3.13 z-score
TTAGATATCTGTCTCGATTAGTGCTAG: 1.3 z-score
GACGCTTTCGGACTGGGGACGTGCTAG: 5.22 z-score
GACGGTATCGCGACTGGGGACGTGCTA: -0.0331 z-score
TTAGTTCTCAGACTGGATTAGTGCTAG: 0.0565 z-score
TTAGGACTGGACTATGGGTTAGTGCTA: -0.336 z-score
GAAGATATCGGGTTTCGAGACGTGCTA: 3.27 z-score
GACGAACTGGGTTATCGAGACGTGCTA: 0.132 z-score

Study 6
Target: JUND, bZIP domain (human)
Method: DHFR protein complementation
Sample: yeast
Notes: single substitutions, most at no-binding floor
Baseline: wild-type JUN-FOS pair
Direction: higher = stronger binding
Measurement: binding fitness
Starting sequence: JUN, bZIP domain (human); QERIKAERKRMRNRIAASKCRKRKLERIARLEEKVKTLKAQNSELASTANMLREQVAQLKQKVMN
I28G: -1.28 natural log
A40P: -1.42 natural log
N42F: -1.4 natural log
L52V: -1.43 natural log
L45T: -1.49 natural log
L38Q: -1.51 natural log
L45H: -1.38 natural log
L52S: -1.46 natural log
L45D: -1.43 natural log
E32H: -1.21 natural log
V56K: -1.31 natural log

Mixed results
PhoQ, residues 284 288 289 292 302 303 AMDMFI — fold induction (PhoP, residues 12 14 15 18 19 QQAYL (Escherichia coli, UniProt P23836); Sort-seq, measured: YFP reporter; E. coli; PhoQ-PhoP variant library, added: 10 µM Mg2+; baseline: high Mg2+ state, higher = stronger signaling): 2.35

Repeated from above (study 3):
GCAAATAC: 0.261
AATTGTCG: 0.38
CACATGAC: 0.319
ACCGACAA: 0.347
CCAGCAAA: 0.316
AACTTCCT: 0.37
CGACATCC: 0.299
AAGTTGCA: 0.275
TTGCAAAA: 0.303
TCTACAAA: 0.26
AACTACAA: 0.259
CGTTGCCA: 0.284
ATATCAAC: 0.284
ACAAAATG: 0.316
